Measured values collected from several papers.
Compare with care: the assays were run in different laboratories. Numbers after ± are the reported error.
Organism: Leishmania donovani

c1ccc(CN2CCCNCCN(Cc3ccccc3)CCCNCC2)cc1
IC50 (parasite growth, resazurin; 72 h, amastigote): > 25 µM

c1ccc(Oc2ccc(Nc3c4c(nc5ccccc35)CCC4)cc2)cc1
IC50 (DD8 resistant line, promastigotes): 8.93 ± 0.67 µM

CN1CCN2CCN(CC1)CCN(Cc1ccccc1)CC2
IC50 (THP-1-derived macrophages, intracellular amastigotes): > 20 µM

Cc1ccc(Cn2cc(C=O)c3cc([N+](=O)[O-])ccc32)cc1
IC50 (parasite growth, resazurin; THP-1; 72 h, intracellular, amastigote): > 10 µM

meglumine antimoniate
IC50 (promastigotes): 26.6 ± 5.4 µM

O=Cc1cn(Cc2cccc(Cl)c2)c2ccc([N+](=O)[O-])cc12
IC50 (parasite growth, resazurin; promastigote): > 100 µM

C[C@H]1N[C@@H](CCCCCCCCCCC2=C[C@@H](CCCCCCCCCC[C@H]3CC[C@@H](O)[C@@H](C)N3)[C@@H]3CCCN3C2)CC[C@H]1O
IC50 (parasite growth; THP-1; intracellular, amastigote): 0.79 µg/mL

c1ccc(CN2CCN3CCCN(CC2)CCN(Cc2ccccc2)CC3)cc1
IC50 (parasite growth, resazurin; 72 h, promastigote): 15.6 µM

O=Cc1cn(Cc2ccc(F)cc2)c2ccc([N+](=O)[O-])cc12
IC50 (parasite growth, resazurin; THP-1; 72 h, intracellular, amastigote): > 10 µM

For quick reference, copied from above:
Cc1ccc(Cn2cc(C=O)c3cc([N+](=O)[O-])ccc32)cc1
IC50 (parasite growth, resazurin; THP-1; 72 h, intracellular, amastigote): > 10 µM
